{"data": "Experimental data collected from several papers", "HDAC6 ZnF-UBD domain": "Protein deacetylase HDAC6, ZnF-UBD domain (HDAC6, Homo sapiens, UniProt Q9UBN7)", "note": "Several values in a cell are separate wells, animals, samples, runs or records. ± marks the error that the study gave.", "chain of UniProt Q9UBN7 (whole entry, looked up)": "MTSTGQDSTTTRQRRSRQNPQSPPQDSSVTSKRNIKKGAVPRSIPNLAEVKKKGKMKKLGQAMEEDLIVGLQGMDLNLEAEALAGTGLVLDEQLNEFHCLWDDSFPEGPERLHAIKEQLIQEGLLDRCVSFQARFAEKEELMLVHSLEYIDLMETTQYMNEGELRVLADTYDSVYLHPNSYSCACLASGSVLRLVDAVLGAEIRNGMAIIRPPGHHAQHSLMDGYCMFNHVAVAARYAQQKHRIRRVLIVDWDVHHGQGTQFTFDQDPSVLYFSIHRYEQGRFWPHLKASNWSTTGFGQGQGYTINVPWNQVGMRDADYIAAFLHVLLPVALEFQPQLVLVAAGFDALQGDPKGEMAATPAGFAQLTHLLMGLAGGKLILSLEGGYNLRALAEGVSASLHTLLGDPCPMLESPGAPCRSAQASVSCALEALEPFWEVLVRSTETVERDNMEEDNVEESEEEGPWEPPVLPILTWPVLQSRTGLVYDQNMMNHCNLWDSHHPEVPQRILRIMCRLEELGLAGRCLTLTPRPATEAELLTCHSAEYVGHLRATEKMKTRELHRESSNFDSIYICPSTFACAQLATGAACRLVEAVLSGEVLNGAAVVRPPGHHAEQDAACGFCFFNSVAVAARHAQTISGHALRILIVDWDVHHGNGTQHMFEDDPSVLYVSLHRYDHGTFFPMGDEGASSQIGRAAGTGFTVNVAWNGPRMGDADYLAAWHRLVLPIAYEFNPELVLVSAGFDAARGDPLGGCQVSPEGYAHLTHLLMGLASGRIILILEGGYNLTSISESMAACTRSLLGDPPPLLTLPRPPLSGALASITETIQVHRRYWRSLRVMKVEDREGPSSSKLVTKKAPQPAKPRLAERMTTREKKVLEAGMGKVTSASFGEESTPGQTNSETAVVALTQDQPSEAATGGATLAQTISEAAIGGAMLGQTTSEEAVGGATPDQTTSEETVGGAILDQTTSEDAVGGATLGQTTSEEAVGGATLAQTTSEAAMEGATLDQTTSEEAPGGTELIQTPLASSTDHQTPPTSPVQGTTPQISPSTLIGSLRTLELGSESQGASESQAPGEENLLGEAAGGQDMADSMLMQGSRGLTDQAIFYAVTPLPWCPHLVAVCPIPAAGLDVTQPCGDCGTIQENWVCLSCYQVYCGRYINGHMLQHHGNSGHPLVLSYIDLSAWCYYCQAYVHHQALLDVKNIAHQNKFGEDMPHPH", "chain of UniProt P50613 (whole entry, looked up)": "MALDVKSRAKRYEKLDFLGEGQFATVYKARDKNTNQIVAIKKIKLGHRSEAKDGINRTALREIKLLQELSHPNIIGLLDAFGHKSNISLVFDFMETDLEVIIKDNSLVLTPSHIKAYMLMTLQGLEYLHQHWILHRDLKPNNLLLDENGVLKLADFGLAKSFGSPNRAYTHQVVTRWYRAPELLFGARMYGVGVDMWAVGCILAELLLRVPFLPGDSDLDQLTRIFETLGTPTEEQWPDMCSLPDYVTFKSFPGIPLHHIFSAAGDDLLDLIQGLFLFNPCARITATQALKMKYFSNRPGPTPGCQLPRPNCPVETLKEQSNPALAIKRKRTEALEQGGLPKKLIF", "chain of UniProt Q92995 (whole entry, looked up)": "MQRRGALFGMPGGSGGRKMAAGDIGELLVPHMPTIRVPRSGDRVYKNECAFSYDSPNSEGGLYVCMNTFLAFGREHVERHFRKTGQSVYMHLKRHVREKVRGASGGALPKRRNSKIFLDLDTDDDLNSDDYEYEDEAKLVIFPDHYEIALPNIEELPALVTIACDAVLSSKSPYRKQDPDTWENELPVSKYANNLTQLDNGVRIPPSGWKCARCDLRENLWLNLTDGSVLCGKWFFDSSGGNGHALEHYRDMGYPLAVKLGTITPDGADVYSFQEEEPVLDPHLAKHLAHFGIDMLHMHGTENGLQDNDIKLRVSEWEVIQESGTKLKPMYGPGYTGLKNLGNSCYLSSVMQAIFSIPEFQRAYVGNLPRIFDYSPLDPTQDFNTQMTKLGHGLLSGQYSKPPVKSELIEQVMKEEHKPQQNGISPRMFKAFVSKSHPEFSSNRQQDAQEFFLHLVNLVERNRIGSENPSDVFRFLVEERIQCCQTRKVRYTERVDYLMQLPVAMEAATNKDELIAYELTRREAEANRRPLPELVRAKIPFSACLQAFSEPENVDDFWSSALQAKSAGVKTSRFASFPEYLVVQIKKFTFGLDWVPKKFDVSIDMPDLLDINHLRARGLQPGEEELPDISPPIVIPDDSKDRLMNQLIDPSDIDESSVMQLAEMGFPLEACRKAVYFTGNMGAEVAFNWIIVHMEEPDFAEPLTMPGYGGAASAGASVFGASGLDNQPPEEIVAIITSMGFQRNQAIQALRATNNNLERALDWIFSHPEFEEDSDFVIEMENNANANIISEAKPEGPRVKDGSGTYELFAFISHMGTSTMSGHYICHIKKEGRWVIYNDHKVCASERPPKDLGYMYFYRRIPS", "chain of UniProt P34995 (whole entry, unmodified, looked up)": "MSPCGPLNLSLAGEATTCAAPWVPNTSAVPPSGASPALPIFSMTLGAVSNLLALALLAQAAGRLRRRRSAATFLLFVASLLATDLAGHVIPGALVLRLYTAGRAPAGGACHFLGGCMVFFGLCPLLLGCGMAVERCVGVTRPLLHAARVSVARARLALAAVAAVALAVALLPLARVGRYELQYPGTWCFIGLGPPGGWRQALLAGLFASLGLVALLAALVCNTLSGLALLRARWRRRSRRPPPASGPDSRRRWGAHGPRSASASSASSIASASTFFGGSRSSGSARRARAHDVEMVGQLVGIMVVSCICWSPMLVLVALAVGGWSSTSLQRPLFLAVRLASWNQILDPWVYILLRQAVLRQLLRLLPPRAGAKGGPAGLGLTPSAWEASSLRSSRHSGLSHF"}
{"SMILES": "O=C(O)CC[C@H](NC(=O)N[C@@H](CCCCNC(=O)[C@H](Cc1ccc2ccccc2c1)NC(=O)CCCCCNC(=O)CN1CCN(CC(=O)O)CCN(CC(=O)O)CCN(CC(=O)O)CC1)C(=O)O)C(=O)O [gallium-68 labelled]", "assay": "gamma counting", "test system": "mouse, 22Rv1 xenograft, spleen", "setting": "intravenous, 3.7 MBq, 2 h", "measurement": "tissue uptake", "value": "3.23 ± 1.19 %ID/g"}
{"SMILES": "O=C(O)CCn1cnc2ccccc21", "target or system": "Ubiquitin carboxyl-terminal hydrolase 13, ZnF-UBD domain (USP13, Homo sapiens, UniProt Q92995)", "measurement": "Kd", "value": "> 1000 µM"}
{"SMILES": "CC(=O)N[C@H]1[C@H](O[C@H]2[C@H](O)[C@@H](NC(C)=O)[C@H](O[C@H]3[C@H](O)[C@@H](NC(C)=O)[C@H](O[C@H]4[C@H](O)[C@@H](NC(C)=O)C(O)O[C@@H]4CO)O[C@@H]3CO)O[C@@H]2CO)O[C@H](CO)[C@@H](O[C@@H]2O[C@H](CO)[C@@H](O[C@@H]3O[C@H](CO)[C@@H](O[C@@H]4O[C@H](CO)[C@@H](O[C@@H]5O[C@H](CO)[C@@H](O)[C@H](O)[C@H]5NC(C)=O)[C@H](O)[C@H]4NC(C)=O)[C@H](O)[C@H]3NC(C)=O)[C@H](O)[C@H]2NC(C)=O)[C@@H]1O (stereo partly shown)", "assay": "LCO binding, radioligand competition binding", "test system": "membrane fractions", "setting": "with: radiolabelled LCO-V(C18:1,NMe)", "measurement": "Ki", "value": "0.0058 µM and 0.017 µM"}
{"SMILES": "NS(=O)(=O)c1ccc(NCC(=O)O)cc1", "target or system": "HDAC6 ZnF-UBD domain", "measurement": "Kd", "value": "> 1000 µM"}
{"SMILES": "CC(=O)N[C@H]1[C@H](O[C@H]2[C@H](O)[C@@H](NC(C)=O)C(O)O[C@@H]2CO)O[C@H](CO)[C@@H](O[C@@H]2O[C@H](CO)[C@@H](O[C@@H]3O[C@H](CO)[C@@H](O)[C@H](O)[C@H]3NC(C)=O)[C@H](O)[C@H]2NC(C)=O)[C@@H]1O (stereo partly shown)", "assay": "LCO binding, radioligand competition binding", "test system": "membrane fractions", "setting": "with: radiolabelled LCO-V(C18:1,NMe)", "measurement": "Ki", "value": "0.0308 µM and 0.037 µM"}
{"SMILES": "CC[C@@H]1[C@H](F)C(=O)N[C@@H]1COc1nccc2cc(C(N)=O)c(OC)cc12", "target or system": "CDK7 (Homo sapiens, UniProt P50613)", "assay": "ATP probe binding, KiNativ profiling, refers to: Lys1 probe site", "test system": "THP-1 cell lysate", "measurement": "IC50", "value": "3.3 µM"}
{"SMILES": "Cc1nc(N)nc2c1C(=O)N[C@@H](c1ccc(F)cc1-c1cccc(OCCF)n1)C2", "assay": "binding, radioligand competition", "test system": "mouse brain homogenate", "setting": "with: [3H]HSP990 0.6 nM", "measurement": "Ki", "value": "0.21 µM"}
{"SMILES": "Cn1cc(-c2ccc(-c3cncc(Cl)c3N3CCC4(CCNC4=O)CC3)cc2)cn1", "target or system": "COLO 205", "assay": "gene expression, microarray, refers to: TLE2 mRNA", "setting": "concentration not given, 6 h", "how to read": "reference: untreated cells", "measurement": "log2 fold change", "value": 2.06}
{"SMILES": "CC(C)C[C@H](NC(=O)C[C@H](O)[C@H](CC(C)C)NC(=O)[C@H](Cc1c[nH]cn1)NC(=O)CNC(=O)[C@@H](NC(=O)[C@H](C)NC(=O)[C@H](Cc1c[nH]c2ccccc12)NC(=O)[C@H](CCC(N)=O)NC(=O)[C@@H](Cc1ccccc1)NC(=O)COCCOCCNC(=O)CCC(C(=O)O)N1CCN(CC(=O)O)CCN(CC(=O)O)CCN(CC(=O)O)CC1)C(C)C)C(N)=O (stereo partly shown) [lutetium-177 labelled]", "test system": "female BALB/c nu/nu mice, intestines", "setting": "intravenous, 50 pmol, 1 h", "measurement": "tissue uptake", "value": "1.4 ± 0.5 %ID/g"}
{"SMILES": "O=C(O)Cc1cccc2cccnc12", "target or system": "HDAC6 ZnF-UBD domain", "measurement": "Kd", "value": "> 1000 µM"}
{"SMILES": "CCCCC[C@H](O)/C=C/[C@H]1[C@H](O)CC(=O)[C@@H]1C/C=C\\CCCC(=O)O", "target or system": "PTGER1 (Homo sapiens, UniProt P34995, L215A)", "assay": "IP1 accumulation, agonist", "test system": "AD293", "setting": "EP1 L215A mutant", "measurement": "EC50", "value": "0.00899 µM"}
{"SMILES": "CC(C)C[C@H](NC(=O)C[C@H](O)[C@H](CC(C)C)NC(=O)[C@H](Cc1c[nH]cn1)NC(=O)CNC(=O)[C@@H](NC(=O)[C@H](C)NC(=O)[C@H](Cc1c[nH]c2ccccc12)NC(=O)[C@H](CCC(N)=O)NC(=O)[C@@H](Cc1ccccc1)NC(=O)COCCOCCNC(=O)CCC(C(=O)O)N1CCN(CC(=O)O)CCN(CC(=O)O)CC1)C(C)C)C(N)=O (stereo partly shown) [lutetium-177 labelled]", "test system": "BALB/c nu/nu mice, female, lumbar lymph node metastases", "setting": "intravenous, 50 pmol, 1 h", "measurement": "tissue uptake", "value": "13 ± 8 %ID/g"}
{"SMILES": "CC(C)c1cc(C(=O)N2Cc3ccc(CN4CCN(C)CC4)cc3C2)c(O)cc1O", "assay": "binding, radioligand competition", "test system": "mouse brain homogenate", "setting": "with: [3H]HSP990 0.6 nM", "measurement": "Ki", "value": "0.018 µM"}
{"note": "A few entries again:"}
{"SMILES": "O=C(O)CC[C@H](NC(=O)N[C@@H](CCCCNC(=O)[C@H](Cc1ccc2ccccc2c1)NC(=O)CCCCCNC(=O)CN1CCN(CC(=O)O)CCN(CC(=O)O)CCN(CC(=O)O)CC1)C(=O)O)C(=O)O [gallium-68 labelled]", "assay": "gamma counting", "test system": "mouse, 22Rv1 xenograft, spleen", "setting": "intravenous, 3.7 MBq, 2 h", "measurement": "tissue uptake", "value": "3.23 ± 1.19 %ID/g"}
